Measured values gathered from unrelated publications.
Protocols differ between the studies behind these lines. ± gives the spread as reported. No end group written: not given here. *: point of attachment.
B1: enzyme (Bacillus pumilus, UniProt A8FFI9); chain EARSIAWSVDEFFKNREGTFVIQEVKEKSPWVYNKKRAKERFAPQSTFKVANALIGLQTGAVRDEYDIKYWDGVKREIDNWNRDHTLGSGMRDSVVWYYQAMARDIGEERMNHWVKAIHYGNKDISGGIDQFWLSSTLRISPIEQVRFLKQLYEETLPFDLKNMRTVKRMMVQEEEKHATLYGKTGSGSDIGWYVGFIKHEHKTYILATNIKGTGIEAKDITYRILKKYHLMEASV
B2: erenumab; V domains shown; sequence looked up; VH QVQLVESGGGVVQPGRSLRLSCAASGFTFSSFGMHWVRQAPGKGLEWVAVISFDGSIKYSVDSVKGRFTISRDNSKNTLFLQMNSLRAEDTAVYYCARDRLNYYDSSGYYHYKYYGMAVWGQGTTVTVSS; VL QSVLTQPPSVSAAPGQKVTISCSGSSSNIGNNYVSWYQQLPGTAPKLLIYDNNKRPSGIPDRFSGSKSGTSTTLGITGLQTGDEADYYCGTWDSRLSAVVFGGGTKLTVL
B3: UGT1A9 (Homo sapiens, UniProt O60656); chain GKLLVVPMDGSHWFTMRSVVEKLILRGHEVVVVMPEVSWQLGRSLNCTVKTYSTSYTLEDLDREFKAFAHAQWKAQVRSIYSLLMGSYNDIFDLFFSNCRSLFKDKKLVEYLKESSFDAVFLDPFDNCGLIVAKYFSLPSVVFARGILCHYLEEGAQCPAPLSYVPRILLGFSDAMTFKERVRNHIMHLEEHLLCHRFFKNALEIASEILQTPVTEYDLYSHTSIWLLRTDFVLDYPKPVMPNMIFIGGINCHQGKPLPMEFEAYINASGEHGIVVFSLGSMVSEIPEKKAMAIADALGKIPQTVLWRYTGTRPSNLANNTILVKWLPQNDLLGHPMTRAFITHAGSHGVYESICNGVPMVMMPLFGDQMDNAKRMETKGAGVTLNVLEMTSEDLENALKAVINDKSYKENIMRLSSLHKDRPVEPLDLAVFWVEFVMRHKGAPHLRPAAHDLTWYQYHSLDVIGFLLAVVLTVAFITFKCCAYGYRKCLGKKGRVKKAHKSKTH
Chain of UniProt Q9UNE7 (whole entry, looked up): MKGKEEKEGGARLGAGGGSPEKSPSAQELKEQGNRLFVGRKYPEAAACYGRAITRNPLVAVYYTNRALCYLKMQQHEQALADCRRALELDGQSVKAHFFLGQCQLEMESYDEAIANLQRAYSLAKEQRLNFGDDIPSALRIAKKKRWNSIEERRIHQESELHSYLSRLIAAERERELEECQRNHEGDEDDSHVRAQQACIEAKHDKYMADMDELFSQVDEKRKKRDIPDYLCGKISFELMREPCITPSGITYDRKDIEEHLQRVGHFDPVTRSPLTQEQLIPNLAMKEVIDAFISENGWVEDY

Substance | target or system | assay | test system | conditions | quantity | result
B1 (enzyme) | C[C@H]1[C@H](NC(=O)/C(=N\OC(C)(C)C(=O)O)c2csc(N)n2)C(=O)N1S(=O)(=O)O | steady-state kinetics | – | pH 7 | kcat/Km | 15000 ± 2000 M⁻¹ s⁻¹
rat amylin | Islet amyloid polypeptide (IAPP, Homo sapiens, UniProt P10997) | ThT fluorescence | – | 4 molar equivalents, pH 7.2, 2% HFIP | aggregation lag time | 50 min
B2 (erenumab) | CALCR/RAMP1 on cells (Homo sapiens) | cAMP production, antagonist, Schild analysis | antibody, HEK293S | together with: amylin | pKB | 5.84
CC(C)[C@H](NC(=O)[C@@H]1CCCN1C(=O)[C@H](CCCNC(=N)N)NC(=O)[C@H](CS)NC(=O)[C@H](Cc1c[nH]c2ccccc12)NC(=O)[C@H](CCCNC(=N)N)NC(=O)[C@@H](Cc1ccccc1)NC(=O)[C@H](Cc1c[nH]cn1)NC(=O)[C@H](CCC(=O)O)NC(=O)[C@H](CS)NC(=O)[C@H](CS)NC(=O)[C@H](CCCCN)NC(=O)[C@@H]1CC(=O)N[C@@H](CCCNC(=N)N)C(=O)N[C@@H](C)C(=O)N[C@@H](CC(=O)O)C(=O)N[C@H](Cc2ccc(O)cc2)C(=O)N1)C(N)=O [technetium-99m labelled] | – | – | C57 mice, bone | intravenous, 0.037 MBq, 4 h | tissue uptake | 0.17 ± 0.08 %ID/g
Insulin human | – | ELISA | rat, ventral cortex | intranasal, 20 µg per nostril, 360 min | concentration | 0 pg/mg tissue
insulin degludec | – | – | human end-stage renal disease, serum | subcutaneous, 0.4 U/kg, dosed after hemodialysis | AUC(0-inf) | 0.112 µM·h
human Hsc70 | E3 ubiquitin-protein ligase CHIP (STUB1, Homo sapiens, UniProt Q9UNE7) | binder, biolayer interferometry | – | pH 7.4, 25 °C, equilibrium saturation fit | Kd | 60 ± 7 nM
B3 (UGT1A9) | O=C(/C=C/c1ccc(O)cc1)c1ccccc1 | steady-state kinetics | – | pH 7.4, 37 °C | Km | 1.62 µM
COc1cccc2c1C(=O)c1c(O)c3c(c(O)c1C2=O)C[C@@](O)(C(=O)CO)C[C@@H]3O[C@H]1C[C@H](NC(=O)[C@@H]2CCCN2C(=O)CN)[C@H](O)[C@H](C)O1 | – | – | mouse, E0771 tumour-bearing, heart | intravenous, 92 µmol/kg PhAc-ALGP-Dox | AUC | 2.3 µM·h
TPDYLMQLMNDKKLMSSAPNFSGIFNHLERLLDEEISRVRKDMYNDTLNGSTEK (Qki 14-67 C35S/L31A (Mus musculus, UniProt Q9QYS9)) | itself | CD thermal melting | – | 50 µM | melting temperature | 62 °C
IscU | HscA wild type Escherichia coli | ATPase activity, activator | – | 50-fold molar excess, pH 7.3, 25 °C, together with: ATP 1 mM | Vmax | 0.257 min⁻¹
rnpA F107W (Bacillus subtilis) | – | NMR, item: His22 | – | 25 °C, Na2SO4 20 mM, numbering of the source | pKa | 6.03
GSS(Octanoyl)FLSPEHQRVQQRKESKKPPAKLQPR (ghrelin; Octanoyl = CCCCCCCC(=O)*; sequence looked up) | Calu-3 monolayer, air-liquid interface | – | peptide | 1 mg/mL apical, 3 h, pH 7.4, 37 °C, with or without HTCC | compound share in basal compartment | 0%

Excerpt of the above:
Substance | target or system | assay | test system | conditions | quantity | result
human Hsc70 | E3 ubiquitin-protein ligase CHIP (STUB1, Homo sapiens, UniProt Q9UNE7) | binder, biolayer interferometry | – | pH 7.4, 25 °C, equilibrium saturation fit | Kd | 60 ± 7 nM
